Assay results pooled from the literature.
Compare with care: the assays were run in different laboratories. ± gives the spread as reported.

`[O-][N+]1=C(c2ccccc2)C2=NCCCN2c2ncccc21` has an MIC of 0.125 µg/mL (Prevotella intermedia/nigrescens; ATCC 25611).
The MIC of `CC[C@H](C)[C@H](NC(=O)[C@H](CCCNC(=N)N)NC(=O)[C@H](CCCCN)NC(=O)[C@H](CC(C)C)NC(=O)[C@H](CC(C)C)NC(=O)CNC(=O)[C@H](Cc1c[nH]cn1)NC(=O)[C@H](C)NC(=O)[C@@H](N)CC(=O)O)C(=O)N[C@@H](CCCCN)C(=O)N[C@H](C(=O)N[C@@H](CC(C)C)C(=O)N[C@@H](CC(C)C)C(N)=O)[C@@H](C)O` is reported as > 32 µM (Enterobacter aerogenes; ATCC 13048; 18 to 20 h).
With `CN[C@@H]1[C@H](O)[C@H](NC)[C@H]2O[C@]3(O)[C@H](O[C@@H]2[C@H]1O)O[C@H](C)C[C@@]3(O)CNCc1ccc(OC(F)(F)F)cc1` the MIC was 6 µg/mL (Streptococcus pneumoniae; BAA-1407 mefE ermB resistant).
With `C[C@@H](c1ccn(Cc2ccc(I)cc2)n1)[C@](O)(Cn1cnnn1)c1ccc(F)cc1F` the MIC was 4 µg/mL (Candidozyma auris; growth; 888 drug-resistant isolate; 24 h, 30 °C, ≥50% inhibition).
`CC[C@H](C)[C@@H]1NC(=O)CNC(=O)[C@H](CCCCN)NC(=O)[C@H](C)NC(=O)[C@H](CCC(=O)O)NC(=O)[C@H](Cc2ccccc2)NC(=O)[C@H](CO)NC(=O)[C@H](CC(C)C)NC(=O)[C@H](C(C)C)NC(=O)[C@H](CC(=O)O)NC(=O)[C@@H](NC(=O)[C@@H](NC(=O)[C@@H](N)C(C)C)[C@@H](C)O)CSSC[C@@H]2NC(=O)[C@H](CO)NC(=O)CNC(=O)CNC(=O)[C@H](CCCCN)NC(=O)[C@H](CCCCN)NC(=O)[C@H](CCCNC(=N)N)NC(=O)[C@H](CC(C)C)NC(=O)[C@H](C)NC(=O)[C@H]([C@@H](C)CC)NC(=O)[C@H](C)NC(=O)[C@H](Cc3c[nH]cn3)NC(=O)[C@H](CC(C)C)NC(=O)[C@H](C)NC(=O)[C@H](CSSC[C@@H](C(=O)N[C@H](C(=O)N[C@@H](C)C(=O)N[C@@H](CCCNC(=N)N)C(=O)N[C@@H](CC(N)=O)C(=O)O)C(C)C)NC(=O)[C@H](C(C)C)NC(=O)CNC(=O)[C@H](CC(N)=O)NC(=O)[C@H](CCC(N)=O)NC2=O)NC(=O)[C@H](C)NC(=O)[C@H](CO)NC(=O)[C@H](Cc2c[nH]cn2)NC(=O)[C@H](CC(N)=O)NC(=O)[C@H](C(C)C)NC(=O)[C@H](C)NC1=O` has an MIC of > 100 µM (Salmonella typhimurium; broth microdilution; KCTC 1926; 16 h, 37 °C).
`C[C@@H](c1ccn(Cc2ccc(OC(F)(F)F)cc2)n1)[C@](O)(Cn1cnnn1)c1ccc(F)cc1F` gave an MIC of 0.25 µg/mL (Candidozyma auris; growth; 789 drug-resistant isolate; 24 h, 30 °C, ≥50% inhibition).
For `CC[C@@H](C)[C@@H](NC(=O)[C@@H](C)NC(=O)[C@@H](CCCCN)NC(=O)[C@@H](CC(C)C)NC(=O)[C@@H](C)NC(=O)[C@H](NC(=O)[C@@H](Cc1c[nH]cn1)NC(=O)[C@@H](CC(C)C)NC(=O)[C@H](NC(=O)[C@H](NC(=O)[C@@H](CCCCN)NC(=O)[C@@H](CCCCN)NC(=O)[C@@H](C)NC(=O)[C@@H](CO)NC(=O)[C@@H](CCCCN)NC(=O)[C@@H](Cc1ccccc1)NC(=O)[C@H](NC(=O)[C@@H](CCCCN)NC(=O)[C@@H](CC(C)C)NC(=O)[C@@H](Cc1ccccc1)NC(=O)[C@@H](CO)NC(=O)[C@@H](CCCCN)NC(=O)[C@@H](Cc1c[nH]c2ccccc12)NC(=O)[C@@H](CCCCN)NC(C)=O)[C@H](C)O)[C@H](C)O)C(C)C)[C@H](C)O)C(=O)N[C@H](CO)C(=O)N[C@H](CO)C(N)=O`, the MIC was 0.8 µM (Acinetobacter baumannii; 689, Mueller-Hinton broth; 24 h, 37 °C).
The MIC of `CN[C@@H]1[C@H](O)[C@H](NC)[C@H]2O[C@]3(O)[C@H](O[C@@H]2[C@H]1O)O[C@H](C)C[C@@]3(O)CNCc1ccc(F)cc1` is reported as 6 µg/mL (Streptococcus pneumoniae; BAA-1407 mefE ermB resistant).
The MIC of `CC(=O)OC1C(C)C(OC2CC3OCOC3C(C)O2)C=COC2(C)Oc3c(C)c(O)c4c(c3C2=O)C(=O)C=C(NC(=O)C(C)=CC=CC(C(C)OC(=O)C(C)(C)CC(=O)O)C(O)C(C)C(O)C1C)C4=O` (stereo not shown) is reported as > 128 µg/mL (Serratia marcescens Serratia marcescens; NCTC 10211).
`COc1ccc(C2=[N+]([O-])c3ccccc3N3CCN=C23)cc1` gave an MIC of 0.125 µg/mL (Clostridium sporogenes; microbial growth; ATCC3584).
For `CC(C)C[C@@H]1NC(=O)[C@H](C)NC(=O)[C@H](C)NC(=O)[C@H](NC(=O)[C@H](CO)NC(=O)[C@@H](CCCCN)NC(=O)[C@@H](CC(C)C)NC(=O)[C@@H](N)Cc2ccccc2)[C@H](C(N)=O)OC1=O`, the MIC was 4 µg/mL (Bacillus subtilis Staphylococcus epidermidis; ATCC 14990; tested as TFA salt).
`CC[C@H](C)[C@H](NC(=O)[C@H](CCCN)NC(=O)[C@H](CC(N)=O)NC(=O)[C@H](Cc1c[nH]c2ccccc12)NC(=O)[C@H](Cc1ccccc1)NC(=O)[C@H](CCCN)NC(=O)[C@H](CCCCNC(=N)N)NC(=O)[C@H](CC(C)C)NC(=O)[C@H](Cc1c[nH]c2ccccc12)NC(=O)[C@H](CCCN)NC(=O)[C@H](CCCCNC(=N)N)NC(=O)[C@H](CC(C)C)NC(=O)CNC(C)=O)C(=O)N[C@@H](CCCN)C(=O)N[C@@H](CCCCNC(=N)N)C(N)=O` gave an MIC of 3.12 µM (Citrobacter freundii; bacterial growth, broth microdilution; multidrug-resistant).
With `C=CCCC[C@@H]1NC(=O)[C@H](CC(C)C)NC(=O)[C@H](C)NC(=O)[C@H](NC(=O)[C@H](CO)NC(=O)[C@@H](CCCCN)NC(=O)[C@@H](CCCC=C)NC(=O)[C@@H](N)Cc2ccccc2)[C@H](C)OC1=O` the MIC was 2 µg/mL (Bacillus subtilis Staphylococcus epidermidis; ATCC 14990; tested as TFA salt).
With `CN(Cc1cc(C2CC2)on1)C(=O)c1cccc(-c2ccc3c(c2)CCO3)c1` the MIC was > 64 µg/mL (Cryptococcus neoformans; broth microdilution; H99, YPD).
`CC[C@H](C)[C@H](NC(=O)[C@H](CCCCNC(=N)N)NC(=O)[C@H](CC(N)=O)NC(=O)[C@H](CC(C)C)NC(=O)[C@H](Cc1ccccc1)NC(=O)[C@H](CCCCNC(=N)N)NC(=O)[C@H](CCCCNC(=N)N)NC(=O)[C@H](CC(C)C)NC(=O)[C@H](CC(C)C)NC(=O)[C@H](CCCCNC(=N)N)NC(=O)[C@H](CCCCNC(=N)N)NC(=O)[C@H](CC(C)C)NC(=O)CNC(C)=O)C(=O)N[C@@H](CCCCNC(=N)N)C(=O)N[C@@H](CCCCNC(=N)N)C(N)=O` has an MIC of 12.5 µM (Enterobacter aerogenes; broth microdilution; multidrug-resistant).
The MIC of `COc1ccc(C2=[N+]([O-])c3ccccc3N3CCCN=C23)cc1` is reported as 1 µg/mL (Clostridium sporogenes; microbial growth; ATCC3584).
The MIC of `C[C@@H](c1ccn(Cc2ccc(Cl)c(Cl)c2)n1)[C@](O)(Cn1cnnn1)c1ccc(F)cc1F` is reported as 8 µg/mL (Candidozyma auris; microbial growth; 887; 24 h, drug-resistant strain, clinical isolate).
For `OB(O)c1ccc(OCc2ccccc2)nc1F`, the MIC was 4 µg/mL (Citrobacter freundii; bacterial growth; AmpC-overproducing clinical isolate; cefotaxime alone).
`COc1ccc(C2=[N+]([O-])c3ccccc3N3CC(C)(C)CN=C23)cc1` gave an MIC of 4 µg/mL (Clostridioides difficile; microbial growth; ATCC43255).
For `CO[C@H]1CC(O)=C2C(=O)c3c(cc(C)c(-c4c(C)cc5c(c4O)C(=O)C4=C(O)C[C@H](OC)[C@@H](O)[C@]4(C)O5)c3O)O[C@@]2(C)[C@@H]1O`, the MIC was 5.1 µM (Colletotrichum acutatum; microbial growth; BCC).
`CC(=O)NC1C(OC2OC(CC(O)C3OC(n4ccc(=O)[nH]c4=O)C(O)C3O)C(O)C(O)C2NC(=O)COCc2ccc(N3CCC(Oc4ccc(OC(F)(F)F)cc4)CC3)cc2)OC(CO)C(O)C1O` (stereo not shown) gave an MIC of > 50 µg/mL (Streptococcus salivarius; ATCC 7752).
For `CC(C)(C)c1ccc(COc2cc3c(=O)c(C(=O)NCCNCCO)cn(Cc4ccccc4)c3cc2Cl)cc1`, the MIC was < 0.25 µg/mL (Cryptococcus neoformans; ATCC 208821; ≥80% growth inhibition).
`C=C(NC(=O)C(=C)NC(=O)c1csc(C2=NC3c4csc(n4)C4NC(=O)c5csc(n5)C(C(C)(O)C(C)O)NC(=O)C5CSC(=N5)C(=CC)NC(=O)C(C(C)O)NC(=O)c5csc(n5)C3(CC2)NC(=O)C(C)NC(=O)C(=C)NC(=O)C(C(C)CC)NC2C=Cc3c(C(C)O)cc(nc3C2O)C(=O)OC4C)n1)C(N)=O` (stereo not shown) has an MIC of > 5 µg/mL (Bacillus sp.; broth microdilution; ATCC 27859; 18 h, 37 °C).
`C[C@@H](c1ccn(Cc2ccc(Cl)cc2Cl)n1)[C@](O)(Cn1cnnn1)c1ccc(F)cc1F` gave an MIC of 64 µg/mL (Candidozyma auris; microbial growth; 887; 24 h, drug-resistant strain, clinical isolate).
For `CC[C@H](C)[C@H](NC(=O)[C@H](C)NC(=O)CNC(=O)[C@@H](N)CCSC)C(=O)N[C@@H](C)C(=O)N[C@@H](CCCCN)C(=O)N[C@@H](CC(C)C)C(=O)N[C@H](C(=O)N[C@@H](C)C(=O)N[C@@H](CCCCN)C(=O)N[C@@H](Cc1ccccc1)C(=O)NCC(=O)N[C@@H](Cc1c[nH]c2ccccc12)C(=O)N1CCC[C@H]1C(=O)N[C@@H](Cc1ccccc1)C(=O)N[C@H](C(=O)N[C@@H](CCCCN)C(=O)N[C@@H](CCCCN)C(=O)N[C@@H](Cc1ccccc1)C(=O)N[C@@H](Cc1ccc(O)cc1)C(=O)N[C@@H](CCCCN)C(=O)N[C@@H](CCC(N)=O)C(=O)N[C@@H](CCCNC(=N)N)C(=O)N[C@@H](CCSC)C(=O)N[C@@H](CCC(N)=O)C(=O)N[C@@H](Cc1ccccc1)C(=O)N[C@H](C(=O)NCC(=O)N[C@@H](CCC(N)=O)C(=O)NCC(=O)N[C@@H](Cc1c[nH]c2ccccc12)C(=O)N[C@H](C(=O)N[C@H](C(=O)N[C@@H](CC(=O)O)C(=O)N[C@@H](CCC(N)=O)C(=O)N[C@H](C(=O)N[C@@H](CCC(=O)O)C(=O)N[C@@H](CCCCN)C(=O)N[C@@H](Cc1c[nH]c2ccccc12)C(=O)N[C@@H](CC(C)C)C(=O)N[C@@H](CCCCN)C(=O)N[C@@H](CCCNC(=N)N)C(=O)N[C@@H](Cc1c[nH]cn1)C(=O)O)[C@@H](C)CC)[C@@H](C)CC)[C@@H](C)O)[C@@H](C)CC)[C@@H](C)CC)C(C)C`, the MIC was 3.1 ± 0.1 µM (Bacillus subtilis subsp. subtilis; ATCC 23857; 10 h).

Excerpt of the above:
With `C[C@@H](c1ccn(Cc2ccc(I)cc2)n1)[C@](O)(Cn1cnnn1)c1ccc(F)cc1F` the MIC was 4 µg/mL (Candidozyma auris; growth; 888 drug-resistant isolate; 24 h, 30 °C, ≥50% inhibition).
`CC[C@H](C)[C@@H]1NC(=O)CNC(=O)[C@H](CCCCN)NC(=O)[C@H](C)NC(=O)[C@H](CCC(=O)O)NC(=O)[C@H](Cc2ccccc2)NC(=O)[C@H](CO)NC(=O)[C@H](CC(C)C)NC(=O)[C@H](C(C)C)NC(=O)[C@H](CC(=O)O)NC(=O)[C@@H](NC(=O)[C@@H](NC(=O)[C@@H](N)C(C)C)[C@@H](C)O)CSSC[C@@H]2NC(=O)[C@H](CO)NC(=O)CNC(=O)CNC(=O)[C@H](CCCCN)NC(=O)[C@H](CCCCN)NC(=O)[C@H](CCCNC(=N)N)NC(=O)[C@H](CC(C)C)NC(=O)[C@H](C)NC(=O)[C@H]([C@@H](C)CC)NC(=O)[C@H](C)NC(=O)[C@H](Cc3c[nH]cn3)NC(=O)[C@H](CC(C)C)NC(=O)[C@H](C)NC(=O)[C@H](CSSC[C@@H](C(=O)N[C@H](C(=O)N[C@@H](C)C(=O)N[C@@H](CCCNC(=N)N)C(=O)N[C@@H](CC(N)=O)C(=O)O)C(C)C)NC(=O)[C@H](C(C)C)NC(=O)CNC(=O)[C@H](CC(N)=O)NC(=O)[C@H](CCC(N)=O)NC2=O)NC(=O)[C@H](C)NC(=O)[C@H](CO)NC(=O)[C@H](Cc2c[nH]cn2)NC(=O)[C@H](CC(N)=O)NC(=O)[C@H](C(C)C)NC(=O)[C@H](C)NC1=O` has an MIC of > 100 µM (Salmonella typhimurium; broth microdilution; KCTC 1926; 16 h, 37 °C).
